# Results pooled from the literature.
# Protocols differ between the studies behind these lines.
# ACHE: Acetylcholinesterase (ACHE, Homo sapiens, UniProt P22303)
# UniProt P22303, sequence (whole entry, looked up): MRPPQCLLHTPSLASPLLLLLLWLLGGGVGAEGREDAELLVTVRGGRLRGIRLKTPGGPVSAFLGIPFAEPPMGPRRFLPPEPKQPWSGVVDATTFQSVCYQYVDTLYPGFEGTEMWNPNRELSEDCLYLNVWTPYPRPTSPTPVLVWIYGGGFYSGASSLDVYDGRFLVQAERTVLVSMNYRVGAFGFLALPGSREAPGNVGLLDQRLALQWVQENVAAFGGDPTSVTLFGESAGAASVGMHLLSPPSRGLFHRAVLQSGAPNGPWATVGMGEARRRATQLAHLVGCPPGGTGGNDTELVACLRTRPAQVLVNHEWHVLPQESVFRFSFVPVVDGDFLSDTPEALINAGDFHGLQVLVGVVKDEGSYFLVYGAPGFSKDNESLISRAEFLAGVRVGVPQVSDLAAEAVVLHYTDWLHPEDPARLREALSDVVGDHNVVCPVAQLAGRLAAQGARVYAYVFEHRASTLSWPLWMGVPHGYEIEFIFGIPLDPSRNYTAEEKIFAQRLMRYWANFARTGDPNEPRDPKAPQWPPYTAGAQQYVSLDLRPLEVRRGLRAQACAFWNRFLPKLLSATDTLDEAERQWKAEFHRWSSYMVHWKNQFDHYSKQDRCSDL
# PFF0160c E182D: Dihydroorotate dehydrogenase (quinone), mitochondrial (PFF0160c, Plasmodium falciparum, UniProt Q08210, E182D)
# UniProt P06276, sequence (whole entry, looked up): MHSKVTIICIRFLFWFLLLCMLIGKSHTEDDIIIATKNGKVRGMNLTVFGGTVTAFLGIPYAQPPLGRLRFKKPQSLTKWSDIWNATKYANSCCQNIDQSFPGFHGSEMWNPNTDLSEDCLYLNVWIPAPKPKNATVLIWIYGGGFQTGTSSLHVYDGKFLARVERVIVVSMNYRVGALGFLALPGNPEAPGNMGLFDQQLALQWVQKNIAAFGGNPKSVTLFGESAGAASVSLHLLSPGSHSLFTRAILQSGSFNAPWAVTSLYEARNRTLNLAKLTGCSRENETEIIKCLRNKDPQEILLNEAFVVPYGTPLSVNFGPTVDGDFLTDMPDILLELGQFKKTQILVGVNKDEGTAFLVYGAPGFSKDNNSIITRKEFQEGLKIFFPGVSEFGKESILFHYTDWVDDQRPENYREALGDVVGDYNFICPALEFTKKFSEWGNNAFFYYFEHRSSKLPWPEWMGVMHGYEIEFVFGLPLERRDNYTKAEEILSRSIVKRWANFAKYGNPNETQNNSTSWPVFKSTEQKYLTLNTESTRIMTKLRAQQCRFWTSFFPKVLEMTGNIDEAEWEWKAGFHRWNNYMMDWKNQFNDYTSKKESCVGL
# UniProt P08172, sequence (whole entry, looked up): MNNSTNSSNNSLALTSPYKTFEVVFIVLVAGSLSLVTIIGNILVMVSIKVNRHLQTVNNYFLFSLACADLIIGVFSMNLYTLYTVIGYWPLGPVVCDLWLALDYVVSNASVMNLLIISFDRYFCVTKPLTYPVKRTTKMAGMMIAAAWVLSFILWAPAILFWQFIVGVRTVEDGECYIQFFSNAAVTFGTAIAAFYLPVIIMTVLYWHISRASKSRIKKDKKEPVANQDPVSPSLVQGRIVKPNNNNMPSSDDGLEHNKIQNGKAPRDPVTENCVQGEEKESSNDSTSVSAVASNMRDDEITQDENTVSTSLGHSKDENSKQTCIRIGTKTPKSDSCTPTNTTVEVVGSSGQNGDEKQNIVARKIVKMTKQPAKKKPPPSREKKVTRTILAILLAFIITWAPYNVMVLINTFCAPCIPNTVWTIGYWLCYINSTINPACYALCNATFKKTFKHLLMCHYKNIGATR
# UniProt P28335, sequence (whole entry, looked up): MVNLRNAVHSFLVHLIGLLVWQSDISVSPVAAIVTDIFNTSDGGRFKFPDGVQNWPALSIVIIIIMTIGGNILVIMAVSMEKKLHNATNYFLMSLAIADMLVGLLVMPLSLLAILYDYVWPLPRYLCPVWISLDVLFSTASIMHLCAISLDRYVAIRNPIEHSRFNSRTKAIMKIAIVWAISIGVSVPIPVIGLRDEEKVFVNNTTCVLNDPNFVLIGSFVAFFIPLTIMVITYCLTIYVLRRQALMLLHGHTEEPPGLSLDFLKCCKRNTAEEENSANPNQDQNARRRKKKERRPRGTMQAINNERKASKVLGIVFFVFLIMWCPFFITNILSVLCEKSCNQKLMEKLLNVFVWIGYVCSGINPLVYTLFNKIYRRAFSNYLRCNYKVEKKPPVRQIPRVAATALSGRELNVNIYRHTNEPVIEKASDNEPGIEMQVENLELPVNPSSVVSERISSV
# UniProt P05067, sequence (whole entry, looked up): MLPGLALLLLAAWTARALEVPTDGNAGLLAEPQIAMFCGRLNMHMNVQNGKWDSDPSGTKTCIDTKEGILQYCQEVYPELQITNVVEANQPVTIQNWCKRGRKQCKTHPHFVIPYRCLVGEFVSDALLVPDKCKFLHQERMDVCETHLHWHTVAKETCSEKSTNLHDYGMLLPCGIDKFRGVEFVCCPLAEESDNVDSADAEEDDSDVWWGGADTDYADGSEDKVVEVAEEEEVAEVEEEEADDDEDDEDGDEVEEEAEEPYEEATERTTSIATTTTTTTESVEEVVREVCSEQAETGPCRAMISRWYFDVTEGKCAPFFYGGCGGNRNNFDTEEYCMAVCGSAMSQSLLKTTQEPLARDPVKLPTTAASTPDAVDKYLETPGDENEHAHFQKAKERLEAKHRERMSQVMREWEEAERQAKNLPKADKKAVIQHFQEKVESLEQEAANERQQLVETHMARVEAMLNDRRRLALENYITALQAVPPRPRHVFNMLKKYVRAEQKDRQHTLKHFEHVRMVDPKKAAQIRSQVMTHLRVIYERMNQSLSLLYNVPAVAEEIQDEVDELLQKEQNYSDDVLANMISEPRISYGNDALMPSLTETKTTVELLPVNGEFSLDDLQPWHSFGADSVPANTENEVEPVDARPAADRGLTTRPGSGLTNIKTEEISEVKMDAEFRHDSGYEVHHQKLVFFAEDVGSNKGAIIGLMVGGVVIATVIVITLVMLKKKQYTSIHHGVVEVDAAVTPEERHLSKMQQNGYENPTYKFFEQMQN
# UniProt P12821, sequence (whole entry, looked up): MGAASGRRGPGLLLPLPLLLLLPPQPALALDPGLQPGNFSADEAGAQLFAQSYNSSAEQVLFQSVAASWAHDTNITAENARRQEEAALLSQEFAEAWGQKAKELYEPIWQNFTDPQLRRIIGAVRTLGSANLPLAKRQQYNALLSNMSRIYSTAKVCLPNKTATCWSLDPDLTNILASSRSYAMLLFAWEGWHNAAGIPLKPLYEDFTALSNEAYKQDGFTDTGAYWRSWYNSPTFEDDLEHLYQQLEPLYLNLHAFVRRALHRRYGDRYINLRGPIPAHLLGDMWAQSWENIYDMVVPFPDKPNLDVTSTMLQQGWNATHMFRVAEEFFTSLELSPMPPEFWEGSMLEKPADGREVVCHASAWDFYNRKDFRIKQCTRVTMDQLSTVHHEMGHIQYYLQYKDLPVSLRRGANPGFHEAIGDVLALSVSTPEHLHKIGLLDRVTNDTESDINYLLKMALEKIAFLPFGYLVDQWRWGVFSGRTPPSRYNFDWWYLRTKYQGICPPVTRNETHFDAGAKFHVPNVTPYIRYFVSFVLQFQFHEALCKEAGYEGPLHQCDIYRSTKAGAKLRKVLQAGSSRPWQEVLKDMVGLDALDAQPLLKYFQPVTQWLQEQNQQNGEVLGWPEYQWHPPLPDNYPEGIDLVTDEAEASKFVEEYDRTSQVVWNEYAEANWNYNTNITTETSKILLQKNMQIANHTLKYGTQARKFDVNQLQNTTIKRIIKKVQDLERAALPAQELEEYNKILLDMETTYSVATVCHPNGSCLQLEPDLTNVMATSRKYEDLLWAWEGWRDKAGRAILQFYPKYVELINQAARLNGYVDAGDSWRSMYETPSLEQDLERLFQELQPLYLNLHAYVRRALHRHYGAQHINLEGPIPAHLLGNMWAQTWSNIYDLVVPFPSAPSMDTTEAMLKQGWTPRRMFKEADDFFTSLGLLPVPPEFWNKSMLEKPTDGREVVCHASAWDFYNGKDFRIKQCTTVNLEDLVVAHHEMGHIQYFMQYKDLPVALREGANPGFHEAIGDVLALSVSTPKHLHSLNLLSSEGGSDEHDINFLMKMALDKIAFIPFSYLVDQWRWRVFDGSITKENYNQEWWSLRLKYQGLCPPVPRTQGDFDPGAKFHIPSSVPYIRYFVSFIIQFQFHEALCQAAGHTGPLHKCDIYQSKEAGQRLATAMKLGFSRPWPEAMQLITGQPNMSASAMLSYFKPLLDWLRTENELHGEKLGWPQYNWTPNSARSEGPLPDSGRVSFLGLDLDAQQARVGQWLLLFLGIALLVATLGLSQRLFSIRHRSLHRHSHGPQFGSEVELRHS
# UniProt P81908, sequence (whole entry, looked up): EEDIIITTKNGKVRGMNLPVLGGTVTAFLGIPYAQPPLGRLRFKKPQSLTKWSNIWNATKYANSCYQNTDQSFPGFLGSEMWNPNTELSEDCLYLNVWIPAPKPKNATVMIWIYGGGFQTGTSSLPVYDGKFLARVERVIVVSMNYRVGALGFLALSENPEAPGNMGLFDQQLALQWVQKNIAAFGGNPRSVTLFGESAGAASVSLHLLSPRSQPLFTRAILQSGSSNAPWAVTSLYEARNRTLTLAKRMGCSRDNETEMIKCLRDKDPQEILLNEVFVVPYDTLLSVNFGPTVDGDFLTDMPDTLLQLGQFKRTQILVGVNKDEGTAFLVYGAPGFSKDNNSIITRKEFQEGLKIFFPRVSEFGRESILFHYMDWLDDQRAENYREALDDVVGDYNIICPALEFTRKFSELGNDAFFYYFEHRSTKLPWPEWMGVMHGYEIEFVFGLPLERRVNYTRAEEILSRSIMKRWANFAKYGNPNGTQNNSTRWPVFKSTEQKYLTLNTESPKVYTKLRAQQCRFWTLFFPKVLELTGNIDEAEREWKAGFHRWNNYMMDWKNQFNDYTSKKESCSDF
SMILES,target or system,assay,system,setting,quantity,result
CN1CCC[C@H]1c1cccnc1,"HTR1A (Homo sapiens, UniProt P08908)",ligand displacement,,50 µM,inhibition,1.47%
COC(=O)c1cc(-c2cccc(NC(=S)Nc3ccc(F)cc3F)c2)on1,Klebsiella pneumoniae,"microbial growth, broth dilution",BAA1705,,MIC,> 64 µg/mL
Cc1c2oc3c(C)ccc(C(=O)N[C@@H]4C(=O)N[C@H](C(C)C)C(=O)N5CCC[C@H]5C(=O)N(C)CC(=O)N(C)[C@@H](C(C)C)C(=O)O[C@@H]4C)c3nc-2c(C(=O)N[C@@H]2C(=O)N[C@H](C(C)C)C(=O)N3CCC[C@H]3C(=O)N(C)CC(=O)N(C)[C@@H](C(C)C)C(=O)O[C@@H]2C)c(N)c1=O,"Palmitoyl-protein thioesterase 1 (Homo sapiens, UniProt P50897)","enzyme activity, inhibitor",,125 µM,inhibition,70.3%
CN1C(=S)N(c2ccccc2)C(=O)/C1=C1/C(=O)N(C)c2ccc(Cl)cc21,ACHE,"enzyme activity, inhibitor, Ellman",,50 nM,inhibition,5%
COc1cc(/C=C/C(=O)O)ccc1OCc1cn(CC(=O)Nc2ccc(F)cc2)nn1,ACHE,"enzyme activity, inhibitor, Ellman",,40 µM,inhibition,9.37%
CC(C)CC(=O)OC[C@H]1O[C@@](C#N)(c2ccc3c(N)ncnn23)[C@H](O)[C@@H]1O,"CHRM2 (Homo sapiens, UniProt P08172)",cell-free assay,,20 µM,inhibition,-6%
c1cncc([C@@H]2CCCN2)c1,"HTR1D (Homo sapiens, UniProt P28221)",cell-free assay,,50 µM,inhibition,-11.6%
COc1cc(/C=C/C(=O)O)ccc1OCc1cn(CC(=O)Nc2ccccc2[N+](=O)[O-])nn1,"Cholinesterase (BCHE, Homo sapiens, UniProt P06276)","enzyme activity, inhibitor, Ellman",,40 µM,inhibition,25.2%
CC[C@H](C)[C@H](NC(=O)[C@@H](NC(=O)[C@H](N)Cc1ccccc1)C(C)C)C(=O)N[C@@H](C)C(N)=O,"APP (Homo sapiens, UniProt P05067)","amyloid aggregation, inhibitor, fluorescence",,"2 µM, 24 h",inhibition,100%
COc1cc(/C=C/C(=O)O)ccc1OCc1cn(CC(=O)Nc2ccc([N+](=O)[O-])cc2)nn1,"Cholinesterase (BCHE, Homo sapiens, UniProt P06276)","enzyme activity, inhibitor, Ellman",,40 µM,inhibition,18.7%
Cc1ncc2c(n1)[C@H](C)[C@@H]1C[C@H]2[C@@](C)(O)CN1Cc1ccccc1,"Oprd1 (Rattus norvegicus, UniProt P33533)","ligand displacement, radioligand",,1 µM,inhibition,0%
COc1cc(/C=C/C(=O)O)ccc1OCc1cn(CC(=O)Nc2ccc([N+](=O)[O-])cc2C)nn1,ACHE,"enzyme activity, inhibitor, Ellman",,40 µM,inhibition,25.6%
[2H]c1c([2H])c([C@]2([2H])CCCN2C(=O)C(C)(C)Oc2ccc3cn[nH]c3c2)c([2H])c([2H])c1C([2H])([2H])[2H],"MAPK11 (Homo sapiens, UniProt Q15759)","binding, competition with immobilised ligand",,1 µM,remaining binding,83%
COc1cc(/C=C/C(=O)O)ccc1OCc1cn(CC(=O)Nc2ccccc2)nn1,"Cholinesterase (BCHE, Homo sapiens, UniProt P06276)","enzyme activity, inhibitor, Ellman",,40 µM,inhibition,24%
CN1C(=O)/C(=N\Nc2ncc(-c3cc4ccccc4oc3=O)s2)c2cc(Cl)ccc21,ACHE,"enzyme activity, inhibitor, Ellman",,10 µM,inhibition,97%
Cc1nc(-c2nc(NCc3ccncc3)ncc2-c2ccsc2)sc1C,PFF0160c E182D,"enzyme activity, inhibitor, absorbance",,,IC50,3410 nM
CCc1ccc(N2C(=O)/C(=C3/C(=O)N(C)c4ccc(Cl)cc43)NC2=S)cc1,ACHE,"enzyme activity, inhibitor, Ellman",,0.1 µM,inhibition,31%
COc1cc(/C=C/C(=O)O)ccc1OCc1cn(CC(=O)Nc2cccc([N+](=O)[O-])c2)nn1,"Cholinesterase (BCHE, Homo sapiens, UniProt P06276)","enzyme activity, inhibitor, Ellman",,40 µM,inhibition,20.5%
COc1ccc(-n2ccnc2SCC(=O)Nc2cc(C)ccc2C)c(OC)c1,PFF0160c E182D,"enzyme activity, inhibitor, absorbance",,,IC50,1140 nM
CC(C)C[C@H](NC(=O)[C@H](Cc1ccc(O)cc1)NC(=O)[C@@H](N)C(C)C)C(=O)N[C@@H](CCC(=O)O)C(=O)N[C@@H](CCC(N)=O)C(=O)O,"ACE (Homo sapiens, UniProt P12821)","enzyme activity, inhibitor, absorbance",,16 mM,inhibition,~98.5%
Nc1ccncc1,"SCN1A (Homo sapiens, UniProt P35498)","ion current, inhibitor, patch clamp",,30 µM,inhibition,-241%
CC(C)C[C@H]1C(=O)N2CCC[C@H]2[C@]2(O)O[C@](NC(=O)[C@@H]3C=C4c5cccc6[nH]c(Br)c(c56)C[C@H]4[N+](C)(C)C3)(C(C)C)C(=O)N12,"HTR2C (Homo sapiens, UniProt P28335)","ligand displacement, radioligand",,10 µM,inhibition,70.9%
COc1cc2c(cc1OC)C(=O)N(CC1CCNC1)C2 (stereo not drawn),"Cholinesterase (BCHE, Equus caballus, UniProt P81908)","enzyme activity, inhibitor, Ellman",,1 µM,inhibition,6.1%
C#Cc1n[nH]c2c(-c3cn([C@@H](C)c4ccccn4)c(=O)[nH]c3=O)cc(F)cc12,"PEAK1 (Homo sapiens, UniProt Q9H792)","enzyme activity, inhibitor",,0.1 µM,inhibition,5.1%

# Some of these lines once more:
SMILES,target or system,assay,system,setting,quantity,result
CC[C@H](C)[C@H](NC(=O)[C@@H](NC(=O)[C@H](N)Cc1ccccc1)C(C)C)C(=O)N[C@@H](C)C(N)=O,"APP (Homo sapiens, UniProt P05067)","amyloid aggregation, inhibitor, fluorescence",,"2 µM, 24 h",inhibition,100%
[2H]c1c([2H])c([C@]2([2H])CCCN2C(=O)C(C)(C)Oc2ccc3cn[nH]c3c2)c([2H])c([2H])c1C([2H])([2H])[2H],"MAPK11 (Homo sapiens, UniProt Q15759)","binding, competition with immobilised ligand",,1 µM,remaining binding,83%
Nc1ccncc1,"SCN1A (Homo sapiens, UniProt P35498)","ion current, inhibitor, patch clamp",,30 µM,inhibition,-241%
